Results from different studies.
Lines come from different studies, so protocols differ. Several values in a cell are separate wells, animals, samples, runs or records. ± gives the spread as reported.
AMY2: Pancreatic alpha-amylase (AMY2, Sus scrofa, UniProt P00690)
Chain of UniProt P00690 (whole entry, looked up): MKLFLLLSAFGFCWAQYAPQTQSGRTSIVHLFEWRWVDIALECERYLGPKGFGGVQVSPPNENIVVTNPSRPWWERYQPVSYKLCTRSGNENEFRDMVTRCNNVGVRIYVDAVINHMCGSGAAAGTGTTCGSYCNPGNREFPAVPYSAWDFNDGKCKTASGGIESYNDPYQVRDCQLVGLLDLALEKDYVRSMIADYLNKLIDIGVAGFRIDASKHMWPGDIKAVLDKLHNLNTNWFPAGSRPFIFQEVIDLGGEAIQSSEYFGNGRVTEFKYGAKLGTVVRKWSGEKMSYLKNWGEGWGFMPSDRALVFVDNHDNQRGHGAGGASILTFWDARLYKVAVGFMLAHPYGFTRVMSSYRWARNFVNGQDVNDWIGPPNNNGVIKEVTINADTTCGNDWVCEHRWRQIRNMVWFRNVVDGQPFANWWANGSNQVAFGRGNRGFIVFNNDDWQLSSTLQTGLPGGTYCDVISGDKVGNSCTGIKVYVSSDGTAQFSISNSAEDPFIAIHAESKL
F2: Prothrombin (F2, Homo sapiens, UniProt P00734)
SETDB1 triple Tudor domain: Histone-lysine N-methyltransferase SETDB1, triple Tudor domain (SETDB1, Homo sapiens, UniProt Q15047)
SIRT1: NAD-dependent protein deacetylase sirtuin-1 (SIRT1, Homo sapiens, UniProt Q96EB6)
Chain of UniProt Q96EB6 (whole entry, looked up): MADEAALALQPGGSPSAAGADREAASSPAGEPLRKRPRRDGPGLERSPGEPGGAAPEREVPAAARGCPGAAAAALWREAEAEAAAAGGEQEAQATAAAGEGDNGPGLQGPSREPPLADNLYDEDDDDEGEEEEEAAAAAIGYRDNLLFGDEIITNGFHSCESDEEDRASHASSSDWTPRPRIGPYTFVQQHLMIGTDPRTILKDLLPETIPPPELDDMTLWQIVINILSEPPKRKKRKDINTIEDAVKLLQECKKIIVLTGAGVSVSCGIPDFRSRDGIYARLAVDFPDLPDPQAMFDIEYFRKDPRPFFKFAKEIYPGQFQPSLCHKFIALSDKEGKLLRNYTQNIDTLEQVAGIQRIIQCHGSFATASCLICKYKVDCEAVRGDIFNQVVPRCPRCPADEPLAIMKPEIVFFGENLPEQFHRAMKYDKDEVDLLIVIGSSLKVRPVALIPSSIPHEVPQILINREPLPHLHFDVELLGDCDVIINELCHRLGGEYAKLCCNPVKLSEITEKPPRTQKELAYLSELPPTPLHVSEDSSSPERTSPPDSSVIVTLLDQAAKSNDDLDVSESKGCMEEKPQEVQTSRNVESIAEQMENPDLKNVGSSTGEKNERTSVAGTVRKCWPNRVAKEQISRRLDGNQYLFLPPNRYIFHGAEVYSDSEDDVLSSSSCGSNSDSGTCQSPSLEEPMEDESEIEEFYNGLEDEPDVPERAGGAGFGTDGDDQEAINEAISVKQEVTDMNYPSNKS
SIRT3: NAD-dependent protein deacetylase sirtuin-3, mitochondrial (SIRT3, Homo sapiens, UniProt Q9NTG7)
Chain of UniProt Q9UM07 (whole entry, looked up): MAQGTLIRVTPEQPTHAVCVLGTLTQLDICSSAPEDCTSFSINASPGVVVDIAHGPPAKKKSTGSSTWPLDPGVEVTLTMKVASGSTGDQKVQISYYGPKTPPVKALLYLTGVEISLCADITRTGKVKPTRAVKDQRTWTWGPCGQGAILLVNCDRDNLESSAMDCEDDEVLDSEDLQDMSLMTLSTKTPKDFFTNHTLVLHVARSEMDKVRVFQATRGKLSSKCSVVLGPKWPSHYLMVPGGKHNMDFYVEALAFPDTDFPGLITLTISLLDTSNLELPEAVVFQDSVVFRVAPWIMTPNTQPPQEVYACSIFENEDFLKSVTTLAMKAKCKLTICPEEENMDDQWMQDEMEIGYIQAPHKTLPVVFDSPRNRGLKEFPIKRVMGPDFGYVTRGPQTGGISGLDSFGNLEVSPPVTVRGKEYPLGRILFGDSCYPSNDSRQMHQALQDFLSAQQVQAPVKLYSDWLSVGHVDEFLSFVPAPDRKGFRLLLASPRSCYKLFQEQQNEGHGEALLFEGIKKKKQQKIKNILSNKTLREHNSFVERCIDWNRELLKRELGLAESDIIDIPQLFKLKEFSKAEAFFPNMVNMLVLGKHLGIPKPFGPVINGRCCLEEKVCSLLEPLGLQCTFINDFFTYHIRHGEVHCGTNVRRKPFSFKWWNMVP
Chain of UniProt Q9NTG7 (whole entry, looked up): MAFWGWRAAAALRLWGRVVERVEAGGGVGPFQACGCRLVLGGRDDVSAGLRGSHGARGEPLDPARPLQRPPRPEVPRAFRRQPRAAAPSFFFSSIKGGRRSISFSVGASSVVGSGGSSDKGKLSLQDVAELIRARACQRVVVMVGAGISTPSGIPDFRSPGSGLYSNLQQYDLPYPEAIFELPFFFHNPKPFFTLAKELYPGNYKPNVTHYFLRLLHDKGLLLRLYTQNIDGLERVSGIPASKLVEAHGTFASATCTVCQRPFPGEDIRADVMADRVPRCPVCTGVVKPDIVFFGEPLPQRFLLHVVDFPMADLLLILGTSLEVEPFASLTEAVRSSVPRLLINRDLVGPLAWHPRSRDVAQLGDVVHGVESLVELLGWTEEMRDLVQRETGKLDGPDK
Chain of UniProt P61073 (whole entry, looked up): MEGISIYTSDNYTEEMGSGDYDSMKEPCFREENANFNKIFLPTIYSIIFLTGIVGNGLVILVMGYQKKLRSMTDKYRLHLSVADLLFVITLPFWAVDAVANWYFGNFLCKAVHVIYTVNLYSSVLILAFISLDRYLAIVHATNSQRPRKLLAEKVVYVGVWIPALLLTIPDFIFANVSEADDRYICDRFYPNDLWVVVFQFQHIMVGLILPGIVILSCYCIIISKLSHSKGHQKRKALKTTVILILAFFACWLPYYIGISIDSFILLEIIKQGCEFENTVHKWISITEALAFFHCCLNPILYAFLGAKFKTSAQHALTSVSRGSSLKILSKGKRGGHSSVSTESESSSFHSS
Chain of UniProt P02708 (whole entry, looked up): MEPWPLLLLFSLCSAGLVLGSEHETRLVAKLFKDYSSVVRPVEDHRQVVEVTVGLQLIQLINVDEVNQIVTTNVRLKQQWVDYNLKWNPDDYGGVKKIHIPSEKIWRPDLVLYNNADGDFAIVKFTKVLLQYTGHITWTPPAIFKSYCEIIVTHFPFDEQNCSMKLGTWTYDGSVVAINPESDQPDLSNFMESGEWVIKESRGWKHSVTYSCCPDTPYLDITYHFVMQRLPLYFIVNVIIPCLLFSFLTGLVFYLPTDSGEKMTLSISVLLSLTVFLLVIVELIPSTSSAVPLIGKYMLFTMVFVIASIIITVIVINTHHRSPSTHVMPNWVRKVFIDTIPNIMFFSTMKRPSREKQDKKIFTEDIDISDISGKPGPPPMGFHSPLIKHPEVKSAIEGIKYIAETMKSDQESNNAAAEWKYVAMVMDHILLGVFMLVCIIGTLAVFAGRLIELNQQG
Chain of UniProt P32745 (whole entry, looked up): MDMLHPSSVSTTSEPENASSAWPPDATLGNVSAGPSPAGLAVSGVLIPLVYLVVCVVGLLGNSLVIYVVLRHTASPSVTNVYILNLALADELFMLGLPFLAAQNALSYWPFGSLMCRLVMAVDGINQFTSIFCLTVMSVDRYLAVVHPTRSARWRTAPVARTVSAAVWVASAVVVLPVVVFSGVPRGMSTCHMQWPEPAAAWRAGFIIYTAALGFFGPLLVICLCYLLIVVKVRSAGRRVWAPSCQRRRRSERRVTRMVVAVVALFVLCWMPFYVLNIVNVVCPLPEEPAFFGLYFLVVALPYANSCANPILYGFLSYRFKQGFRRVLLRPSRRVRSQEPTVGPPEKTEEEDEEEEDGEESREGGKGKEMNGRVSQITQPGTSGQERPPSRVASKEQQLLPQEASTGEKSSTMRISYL
Chain of UniProt P28222 (whole entry, looked up): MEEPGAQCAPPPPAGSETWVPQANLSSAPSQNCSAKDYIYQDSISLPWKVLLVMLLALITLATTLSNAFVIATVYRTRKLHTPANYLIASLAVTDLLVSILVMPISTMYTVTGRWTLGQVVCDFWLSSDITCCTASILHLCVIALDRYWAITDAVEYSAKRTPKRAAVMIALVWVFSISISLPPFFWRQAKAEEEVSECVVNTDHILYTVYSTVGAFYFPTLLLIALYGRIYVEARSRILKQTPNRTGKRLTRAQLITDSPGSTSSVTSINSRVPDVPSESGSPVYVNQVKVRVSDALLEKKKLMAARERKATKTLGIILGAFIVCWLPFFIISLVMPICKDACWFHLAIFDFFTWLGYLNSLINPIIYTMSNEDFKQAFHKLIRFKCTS
Chain of UniProt Q07001 (whole entry, looked up): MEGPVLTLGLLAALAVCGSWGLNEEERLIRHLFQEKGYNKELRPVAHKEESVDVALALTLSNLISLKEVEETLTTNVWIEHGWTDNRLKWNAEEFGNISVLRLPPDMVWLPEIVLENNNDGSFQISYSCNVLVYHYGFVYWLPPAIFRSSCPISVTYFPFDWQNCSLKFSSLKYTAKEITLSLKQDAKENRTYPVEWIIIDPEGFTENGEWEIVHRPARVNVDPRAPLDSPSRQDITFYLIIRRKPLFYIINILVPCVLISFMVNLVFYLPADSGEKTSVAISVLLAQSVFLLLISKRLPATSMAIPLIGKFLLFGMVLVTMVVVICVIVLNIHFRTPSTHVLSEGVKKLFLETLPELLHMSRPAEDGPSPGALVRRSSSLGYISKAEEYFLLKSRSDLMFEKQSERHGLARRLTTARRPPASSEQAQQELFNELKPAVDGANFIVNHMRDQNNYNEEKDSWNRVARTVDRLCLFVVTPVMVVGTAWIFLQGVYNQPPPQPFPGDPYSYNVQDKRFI
Chain of UniProt P18031 (whole entry, looked up): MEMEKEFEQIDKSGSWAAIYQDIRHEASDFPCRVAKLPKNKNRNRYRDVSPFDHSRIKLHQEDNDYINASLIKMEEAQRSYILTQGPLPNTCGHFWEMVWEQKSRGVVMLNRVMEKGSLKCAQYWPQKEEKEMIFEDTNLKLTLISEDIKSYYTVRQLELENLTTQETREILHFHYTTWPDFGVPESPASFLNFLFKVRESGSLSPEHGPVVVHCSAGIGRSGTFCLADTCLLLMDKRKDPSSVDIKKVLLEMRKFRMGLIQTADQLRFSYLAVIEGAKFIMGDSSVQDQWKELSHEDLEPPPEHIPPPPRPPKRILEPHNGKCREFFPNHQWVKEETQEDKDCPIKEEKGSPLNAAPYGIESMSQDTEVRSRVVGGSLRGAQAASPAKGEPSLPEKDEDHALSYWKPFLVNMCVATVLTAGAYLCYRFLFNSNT

`CSCC[C@H](NC(=O)[C@H](Cc1ccccc1)NC(=O)[C@H](Cc1c[nH]c2ccccc12)NC(=O)[C@H](C)NC(=O)[C@H](Cc1c[nH]c2ccccc12)NC(=O)[C@H](Cc1c[nH]c2ccccc12)NC(=O)[C@H](CCC(=O)O)NC(C)=O)C(N)=O` has an inhibition of 56.8 ± 3.7% (Programmed cell death 1 ligand 1, with PD-1 (CD274, Homo sapiens, UniProt Q9NZQ7); PD-1/PD-L1 binding, ELISA; 10 µM).
`O=C1c2sc(-c3ccc(N4CCC(CO)CC4)nc3F)nc2CCN1c1cccnc1` has an inhibition of 3% (AVPR2 (Homo sapiens, UniProt P30518); ligand displacement, radioligand; 1 µM).
For `Cl.Cl.N[C@@H](C(=O)N1CCCC1)C1CCN(c2nccc3c(-c4ncc(Cl)cc4Cl)cccc23)CC1`, the inhibition was 3.99% and -3.34% and -0.107% (PADI4 (Homo sapiens, UniProt Q9UM07); enzyme activity, inhibitor; 78.2 nM, with: Ca2+ 0.4 mM).
`N#Cc1ccc(NC(=O)Nc2cccc(-c3ccccc3)c2)cc1` gave an inhibition of 52% (SRPK3 (Homo sapiens, UniProt Q9UPE1); binding, KINOMEscan competitive binding; concentration not given).
For `C/C=C/C(=O)Nc1ccc2nc(NCCCCCN(C)C)nc(NCCCCCCN(C)C)c2c1`, the inhibition was 78% (CARM1 (Homo sapiens, UniProt Q86X55); enzyme activity, inhibitor, radiometric; 50 µM).
With `C[Si]1(C[C@H](CN)CC(=O)O)CCCC1` the inhibition was -2% (SSTR3 (Homo sapiens, UniProt P32745); ligand displacement, radioligand; 70 µM).
For `COc1c(Br)c(O)c2c(c1Br)OC(c1ccccc1)CC2=O` (centres unmarked), the inhibition was 20.8 ± 4.55% (AMY2; enzyme activity, inhibitor; 50 µM, with: CNP-G3 substrate).
The inhibition of `C[C@@H](O)[C@H](NC(=O)c1ccc(OCc2ccccc2)cc1)C(=O)N[C@@H](CCc1ccccc1)C(=O)NCc1ccccc1Cl` is reported as 1% (trypsin; enzyme activity, inhibitor; 100 µM).
`C=CC(=O)Nc1cccc(-c2cnc3[nH]cc(C(=O)NC(C)(C)C)c3n2)c1` has an inhibition of 3% and 4% (NDRG1; 0.1 µM).
With `Cc1ccc(CNC(=O)[C@H](CCc2ccccc2)NC(=O)[C@H](CCc2ccccc2)NC(=O)Cc2cccc(Oc3ccccc3)c2)cc1` the inhibition was 12% (F2; enzyme activity, inhibitor; 100 µM).
`CN(C)CCCCCCNc1nc(NCCCCCN(C)C)nc2ccc(NC(=O)CCl)cc12` gave an inhibition of 30.1% (SETDB1 triple Tudor domain; 0.412 µM).
The inhibition of `CCCCCCCCCCCCNC(=S)NCCCC[C@H](NC(=O)OCc1ccccc1)C(=O)N[C@@H](CC(C)C)C(=O)N[C@@H](CCCNC(=N)N)C(N)=O` is reported as 57% (SIRT1; enzyme activity, inhibitor; 1 µM).
For `O=C1c2sc(-c3ccc(N4CCC(F)C4)nc3F)nc2CCN1c1cccnc1` (centres unmarked), the inhibition was 8% (CHRNA1/CHRNG/CHRND (Homo sapiens, UniProt P02708+P07510+Q07001); radioligand binding, antagonist; 1 µM).
With `O=C(NC1CCC1)[C@H](Cc1c[nH]c2ccccc12)NC(=O)[C@H](CCCCNC(=S)Nc1ccc(F)c(O)c1F)NS(=O)(=O)c1cccc(F)c1` the inhibition was 78% (SIRT3; enzyme activity, inhibitor; 30 µM).
`CN(C)C/C=C/C(=O)Nc1ccc2nc(NCCCCCN(C)C)nc(NCCCCCCN(C)C)c2c1` has an inhibition of 66% (KMT5B (Homo sapiens, UniProt Q4FZB7); enzyme activity, inhibitor, radiometric; 10 µM).
The inhibition of `CC(=O)C12NC(C)(C)CC1(C)C(=O)C1=C2c2c(c3c4n2C(C)(C)CC2=C4C4(CC(C)(C)NC(C)(C4)C2=O)CC3(C)C)C(=O)C(C)(C)N1` (single isomer, unassigned; (-)) is reported as 2.39 ± 0.09% (Scn9a (Rattus norvegicus, UniProt O08562); ion current, antagonist, whole-cell patch clamp; HEK293T; 10 µM).
`C=CS(=O)(=O)Nc1ccc2nc(NCCCCCN(C)C)nc(NCCCCCCN(C)C)c2c1` has an inhibition of 103% (SETDB1 triple Tudor domain; 3.704 µM).
For `O=C(Nc1ccc(C(F)F)cc1)[C@H](CC1CCCCC1)Nc1nn2c(=O)ccnc2s1`, the inhibition was -9% (PTPN1 (Homo sapiens, UniProt P18031); enzyme activity, inhibitor; 10 µM).
`COc1c(Br)c(O)c(Br)c2c1C(=O)CC(c1ccccc1)O2` (centres unmarked) gave an inhibition of 43.8 ± 1.69% (AMY2; enzyme activity, inhibitor; 50 µM, with: CNP-G3 substrate).
`O=C1CO[C@H](CNC(=O)C2(c3ccc(Cl)cc3)CC2)CN1C1Cc2ccccc2C1` has an inhibition of 2% (CCR7 (Homo sapiens, UniProt P32248); β-arrestin recruitment, antagonist; 1 µM).
For `Cc1nc2c(F)cc(-c3nc(Nc4ccc(CNC(=O)CCCCCCC(=O)NO)cc4)ncc3F)cc2n1C(C)C`, the inhibition was 1% (Phosphatidylinositol 4,5-bisphosphate 3-kinase catalytic subunit beta isoform, with p85 beta (Pik3cb, Mus musculus, UniProt Q8BTI9); enzyme activity; 1 µM, p110β/p85β)(m mouse).
`C[Si](C)(C)C[C@H](CN)CC(=O)O` has an inhibition of 5% (AMPA receptor, rat; binding, radioligand binding; 250 µM, with: [3H]AMPA).
`Cc1ccc(CN(C)C(=O)C(CCc2ccccc2)NC(=O)C(NC(=O)c2ccc(OCc3ccccc3)cc2)C(C)O)cc1` (centres unmarked) gave an inhibition of 21% (F2; enzyme activity, inhibitor; 100 µM).
For `CC1Cc2ccccc2N1C(=O)CN1CCN(c2ccccc2)CC1` (centres unmarked), the inhibition was -2.8% (HTR1E (Homo sapiens, UniProt P28566); radioligand binding; concentration not given, with: [3H]5-HT).
The inhibition of `O=[N+]([O-])c1ccc(Cn2cc(Cn3cc(CO)nn3)nn2)cc1` is reported as 64 ± 8% (Cytohesin-3, PH domain (Cyth3, Mus musculus, UniProt O08967); PIP3 binding to PH domain, SPR; 50 µM).
With `COc1ncc2nc(C)n(Cc3ncc(S(N)(=O)=O)cc3F)c2c1-c1ccccc1` the inhibition was -9.01% (HTR1B (Homo sapiens, UniProt P28222); antagonist, cell-based; 10 µM).
For `CCCCCCCCCCCCNC(=S)NCCCC[C@H](NC(=O)OCc1ccccc1)C(=O)N[C@H](C)C(=O)N[C@@H](CCCNC(=N)N)C(N)=O`, the inhibition was 11% (SIRT3; enzyme activity, inhibitor; 10 µM).
`C[C@H](NC(=O)[C@H](CC(=O)NCC(C)(C)C)NC(=O)CCc1ccccc1)C(=O)NCc1ccccc1Cl` gave an inhibition of 2% (trypsin; enzyme activity, inhibitor; 100 µM).
For `CCCCCCCCCCCCNC(=S)NCCCC[C@H](NC(=O)OCc1ccccc1)C(=O)N[C@@H](CCC(=O)O)C(=O)N[C@@H](CCCNC(=N)N)C(N)=O`, the inhibition was 62% (SIRT3; enzyme activity, inhibitor; 10 µM).
The inhibition of `Cc1ccc(N(O)/N=N/c2ccc(S(=O)(=O)Nc3nccs3)cc2)cc1` is reported as 36.8% (AMY2; enzyme activity, inhibitor; 240 µg/mL).
With `CN(Cc1ccc(/C=C/C(=O)NO)cc1)CC12CC3CC(CC(C3)C1)C2` the inhibition was -11% (human beta1 adrenoceptor; agonist radioligand binding; 0.05 µM).
With `CC(=O)N[C@H](C(=O)N[C@@H](CO)C(=O)N[C@@H](Cc1ccccc1)C(=O)N[C@H]1CCCCNC(=N)NCCCCNC(=N)NCCCC[C@@H](C(=O)N2CCC[C@H]2C(N)=O)NC(=O)[C@H](CC(C)C)NC(=O)[C@H](CC(C)C)NC(=O)[C@H](C)NC(=O)[C@H](Cc2c[nH]c3ccccc23)NC(=O)[C@H](Cc2ccc(O)cc2)NC(=O)[C@H](CCC(=O)O)NC1=O)[C@@H](C)O` the inhibition was no less than 90% (Protein Mdm4 (MDM4, Homo sapiens, UniProt O15151); protein-protein interaction, inhibitor, TR-FRET; 0.1 µM).
With `COc1ccccc1N1CCN(c2nc(Nc3ccc(C)cc3C)c3nccnc3n2)CC1` the inhibition was 35% and 66% (CXCR4 (Homo sapiens, UniProt P61073); arrestin recruitment, DiscoverX arrestin; 30 µM).
For `CCCCCCCCCCCCNC(=S)NCCCC[C@H](NC(=O)OCc1ccccc1)C(=O)N[C@@H](Cc1c[nH]c2ccccc12)C(=O)N[C@@H](CC(C)C)C(N)=O`, the inhibition was less than 5% (SIRT1; enzyme activity, inhibitor; 10 µM).
`C=CCNC(=O)[C@H](CCc1ccccc1)NC(=O)[C@H](CC(=O)NCC(C)(C)C)NC(=O)CCc1ccccc1` gave an inhibition of -4% (chymotrypsin; enzyme activity, inhibitor; 100 µM).

Excerpt of the above:
For `O=C(Nc1ccc(C(F)F)cc1)[C@H](CC1CCCCC1)Nc1nn2c(=O)ccnc2s1`, the inhibition was -9% (PTPN1 (Homo sapiens, UniProt P18031); enzyme activity, inhibitor; 10 µM).
`COc1c(Br)c(O)c(Br)c2c1C(=O)CC(c1ccccc1)O2` (centres unmarked) gave an inhibition of 43.8 ± 1.69% (AMY2; enzyme activity, inhibitor; 50 µM, with: CNP-G3 substrate).
`O=C1CO[C@H](CNC(=O)C2(c3ccc(Cl)cc3)CC2)CN1C1Cc2ccccc2C1` has an inhibition of 2% (CCR7 (Homo sapiens, UniProt P32248); β-arrestin recruitment, antagonist; 1 µM).
For `Cc1nc2c(F)cc(-c3nc(Nc4ccc(CNC(=O)CCCCCCC(=O)NO)cc4)ncc3F)cc2n1C(C)C`, the inhibition was 1% (Phosphatidylinositol 4,5-bisphosphate 3-kinase catalytic subunit beta isoform, with p85 beta (Pik3cb, Mus musculus, UniProt Q8BTI9); enzyme activity; 1 µM, p110β/p85β)(m mouse).
`C[Si](C)(C)C[C@H](CN)CC(=O)O` has an inhibition of 5% (AMPA receptor, rat; binding, radioligand binding; 250 µM, with: [3H]AMPA).
